Results gathered from unrelated publications.
Every numbered part comes from another study and shows a few of its results, in no order.

Study 1
Target: Ras GTPase-activating protein-binding protein 1, full length (G3BP1, Homo sapiens, UniProt Q13283)
UniProt Q13283, sequence (whole entry, looked up): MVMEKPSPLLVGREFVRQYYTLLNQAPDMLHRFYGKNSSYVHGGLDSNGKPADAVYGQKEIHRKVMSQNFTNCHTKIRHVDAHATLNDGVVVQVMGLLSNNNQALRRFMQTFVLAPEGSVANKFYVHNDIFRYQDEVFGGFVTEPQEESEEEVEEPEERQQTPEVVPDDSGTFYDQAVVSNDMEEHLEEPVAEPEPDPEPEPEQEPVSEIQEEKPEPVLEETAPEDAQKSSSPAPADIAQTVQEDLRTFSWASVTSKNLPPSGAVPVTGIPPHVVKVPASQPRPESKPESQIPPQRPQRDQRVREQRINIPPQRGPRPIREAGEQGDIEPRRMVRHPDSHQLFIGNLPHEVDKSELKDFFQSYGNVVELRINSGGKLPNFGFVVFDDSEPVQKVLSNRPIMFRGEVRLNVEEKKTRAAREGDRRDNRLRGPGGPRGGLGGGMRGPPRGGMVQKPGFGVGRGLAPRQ
Technique: RNA Bind-n-Seq
Form: RNA
Medium: in vitro
Tested at: 200 nM
Notes: whole 134-nt RNA, ends assumed
Together with: 150 mM LiCl
Relative to: input library
Direction: higher = stronger binding
Library: 7-deaza-guanosine replaces G
Sequence	log2 enrichment
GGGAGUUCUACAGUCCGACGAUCGUCCUGUGCUACACAUCGUAUGUACCGAAUCAAAUUUUUUUAAAUUUAAACCCCCAAAAAAGUAUUAUGUUACGCCGUUCGGAUCUGCACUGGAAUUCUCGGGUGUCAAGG	0.293
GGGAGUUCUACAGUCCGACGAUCUGUUCCUGUUGAUGAAAAUCUUUUCACUGGAGAGGAUUUGGAUGAACUAGAAGAAGAAUUAAAUACACUUGAUUUAGAAGAAUGACACCAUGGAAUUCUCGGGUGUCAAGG	-1.01
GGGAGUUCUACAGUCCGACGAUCAGUCCUGUGCUACACAUCGUAUGUACCGAAUCGGAAAAAAAGGUUUGGAAAAAAAGGAAAGUAUUAUGUUACGCCGUUCGGAUCUGCACUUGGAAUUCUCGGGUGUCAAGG	-2.13
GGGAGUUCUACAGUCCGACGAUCACCAUGCAGGUGGGCAUCUUUGGAAAGUGGGGCAAGGGGGGGAUAGGGAGGGGGGUAACACUUUGGGAACAGGUGGUCCCAGGUCGUUUCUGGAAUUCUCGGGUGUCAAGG	0.294
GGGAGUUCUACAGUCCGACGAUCCUCAAGUCCUGUGCUACACAUCGUAUGUACCGAAUCGGCCGGGGCCGGGCCGGAAAGUAUUAUGUUACGCCGUUCGGAUCUGCACUUCCAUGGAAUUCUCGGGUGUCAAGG	-0.0143
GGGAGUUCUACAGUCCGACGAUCCUCAAGUCCUGUGCUACACAUCGUAUGUACCGAAUCGGUGGAAAGGUUUUUGGAAAGUAUUAUGUUACGCCGUUCGGAUCUGCACUUCCAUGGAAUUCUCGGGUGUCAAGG	0.131
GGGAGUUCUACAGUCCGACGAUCUGGGAGGUGGAUUUUGUUUAUUUUUUUAGCUCAUUUCCAGGGGUGGGAAUUUUUUUUUAAUAUGUGUAAUGAAUAAAGUUGUUUUUGAAAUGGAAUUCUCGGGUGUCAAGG	-0.259
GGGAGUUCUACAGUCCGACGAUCGUCCUGUGCUACACAUCGUAUGUACCGAAUCGGGGCCCCGGGGCCCCGGGGCCCCGGGAAAGUAUUAUGUUACGCCGUUCGGAUCUGCACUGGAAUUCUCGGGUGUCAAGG	-0.0682
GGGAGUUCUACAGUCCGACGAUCAGUCCUGUGCUACACAUCGUAUGUACCGAAUCGGUUUUUGGUUUUUGGGUUUUUGGGAAAGUAUUAUGUUACGCCGUUCGGAUCUGCACUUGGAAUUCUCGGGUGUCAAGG	-0.906
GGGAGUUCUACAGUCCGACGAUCGUCCUGUGCUACACAUCGUAUGUACCGAAUCGGGGUUUUUGGGGAGGGGAAAAAGGGGAAAGUAUUAUGUUACGCCGUUCGGAUCUGCACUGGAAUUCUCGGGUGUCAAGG	0.11
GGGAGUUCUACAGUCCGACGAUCUAACUUUAGAGGAGGAUCUGAUGGAUAUGGCAGUGGACGUGGAUUUGGGGAUGGCGAUAAUGGGUAUGGAGGAGGACCUGGAGGUGGCAAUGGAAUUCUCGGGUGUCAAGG	0.251

Study 2
Target: Sal-like protein 4, full length isoform B (SALL4, Homo sapiens, UniProt Q9UJQ4-2, residues 1-616)
Technique: universal PBM
Form: double-stranded DNA, one strand shown
Medium: in vitro
Tested at: not given
Notes: 8-mer, flanks averaged, mean of replicates
Direction: higher = stronger binding
Sequence	E-score
CAGATCAC	-0.0646
GTCAAGAA	0.0638
CGATCTTC	-0.0669
ATCGAAGG	0.0826
AAGAAACC	-0.122
CCGTGATA	0.0124
CTGACTGC	-0.175
AGTGCAAT	0.138
ACAGTTGG	0.00791
AGGCTATG	-0.0372
TGGTCGAA	-0.118
GTGGGAAA	0.0347
TCGGACAA	0.105
CGATAAGA	0.102
ATTTTTGG	0.15
CAACTCGA	-0.0914
TAAGAATA	0.18
CTCTTGTA	0.113
CCGCTTAC	-0.19
AGTCACAG	0.019
AAACCCTT	0.14
AGCTACGC	-0.175
ACTAGTGC	-0.0757
CCTCGTTA	0.112
CAGAGCAG	-0.0347

Study 3
Target: Interferon regulatory factor 7, full length, phosphomimetic (IRF7, Homo sapiens, UniProt Q92985, residues 1-503, S471D/S472D/S475D/S476D/S477D/S483D/S484D/S487D)
UniProt Q92985, sequence (whole entry, unmodified, looked up): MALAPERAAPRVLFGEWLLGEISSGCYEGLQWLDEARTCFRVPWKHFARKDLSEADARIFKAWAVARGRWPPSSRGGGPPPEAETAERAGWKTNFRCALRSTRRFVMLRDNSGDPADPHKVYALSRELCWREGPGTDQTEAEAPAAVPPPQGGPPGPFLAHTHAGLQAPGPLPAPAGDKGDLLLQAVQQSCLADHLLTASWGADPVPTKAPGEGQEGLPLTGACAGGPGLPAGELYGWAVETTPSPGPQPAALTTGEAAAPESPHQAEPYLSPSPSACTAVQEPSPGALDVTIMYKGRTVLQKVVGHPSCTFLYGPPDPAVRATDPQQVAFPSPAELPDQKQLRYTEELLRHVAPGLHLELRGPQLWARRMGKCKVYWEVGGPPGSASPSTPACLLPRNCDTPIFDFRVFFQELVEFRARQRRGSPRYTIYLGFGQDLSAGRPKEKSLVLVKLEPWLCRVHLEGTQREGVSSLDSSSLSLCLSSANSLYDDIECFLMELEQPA
Technique: protein-binding microarray
Form: double-stranded DNA, one strand shown
Medium: in vitro
Tested at: 2200 nM top
Notes: 60-bp whole probe
Together with: salmon DNA 0.4 mg/ml
Relative to: random background probes
Direction: higher = stronger binding
Constant ends, left off below: GCCTAGCAC … GTCTTGATTCGCTTGACGCTGCTG
Sequence	fitted relative affinity
TTAGGACTGGGGCATCGGTTAGTGCTA	-0.827 z-score
TTAGATATCGGTATCGATTAGTGCTAG	0.305 z-score
GACGGTTGCGGTATCGGGACGTGCTAG	0.185 z-score
TCAGTTTTAAATTCTAAACTGTGCTAG	0.583 z-score
TCATGGTTCTTGCTTGGTACTGTGCTA	0.998 z-score
GACGGTATCCTACTGGTGACGTGCTAG	0.216 z-score
TTAGGTCTCGGACTGGGATAGTGCTAG	-0.408 z-score
TTAGGTTTCGGTTCTGGTTAGTGCTAG	11.3 z-score
TTAAATATCGGGACTGGATTAGTGCTA	-0.536 z-score
TTAGATTTGAGTTTCGATTAGTGCTAG	4 z-score
GTGACTCTGAACCTTCAGCTCGTGCTA	0.576 z-score
TCATAATTCTGATTGGAACTGTGCTAG	0.388 z-score
GACGGTATCCTTTTCCAGACGTGCTAG	1.27 z-score
TTAGGCCTCCTTTTCCTTTAGTGCTAG	1.58 z-score
TTAGGTTTCGGGTCTGGGTTAGTGCTA	6.87 z-score
CTCCCCTTGCTTTCCAATTCGTGCTAG	2.51 z-score

Study 4
Target: RNA binding protein fox-1 homolog 2, RRM domain, GST-SBP tag (RBFOX2, Homo sapiens, UniProt O43251-10, residues 100-194)
Technique: RNA Bind-n-Seq
Form: RNA
Medium: in vitro
Tested at: 365 nM
Notes: natural RNA segment, single round, ends assumed
Relative to: no-protein control
Direction: higher = stronger binding
Target sequence (chain): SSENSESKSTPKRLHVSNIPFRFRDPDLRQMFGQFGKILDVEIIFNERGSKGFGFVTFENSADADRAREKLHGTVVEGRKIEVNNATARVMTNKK
Sequence	RBNS enrichment (R)
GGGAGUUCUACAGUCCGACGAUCGUGGCCUUUUGUGAUGGUUUUAUUUUCUGUUAACACUGUGUCCUGGGGGGGCUGGGAAGUCCCCUGCAUCCCAUGGUACCCUGGUAUUGGGACAGCAAAAGCCAGUAACCUGGAAUUCUCGGGUGCCAA	0.402
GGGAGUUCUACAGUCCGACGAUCUUGGGGUAGGGAUUUCUGUCUUAUUUUCAAAUAGCCAGGGUUUUUCUUCAUUUUUUUGGUAUUUGCAUAAAGUGAACAAUAUCACAAGAAUUAAAUCACUGUGGACCCAUUGGAAUUCUCGGGUGCCAA	0.381
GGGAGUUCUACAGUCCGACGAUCGCAUUUCUGUUCACUAACCCCACUCCAGGACACUGCCCCUGAAGCCUUUGCAUCUCUGCUCUUCACUCCUGGGGGGCAGCUGAGCUCCCCGCGUGCUGUGUCACUGCUUUUGGAAUUCUCGGGUGCCAA	1.59
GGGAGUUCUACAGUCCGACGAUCACAGGAGUACUGGAGGGAUUUGCAAGCUAACGGGCCAAAUGCUUCCAUAGGAAUAAGGCAUGCCCAGCUAACAGAAAUUUAAGUCCCUCUUCCCCACCUCUCUCAUCUAGUGGAAUUCUCGGGUGCCAA	0.377
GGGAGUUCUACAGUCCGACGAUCGGGUCUCAGGGCCUGACAUAGGGGUCUUAGCUCAGCCAUAUCCCUCUGAGGCACAGGGCGAGCAGGGACCAAGUAGCAGACGAGUCGAUGCUUCACCUGGCAUCUAGCCAUGGAAUUCUCGGGUGCCAA	0.252
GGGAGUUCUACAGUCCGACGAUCUUUCUAUGUCUCCCCAAGGCUGGGGUGCUGAGCCUGCCUUCCUCACCACCUAGCCAUAGUCUCAAACCUGUGGGGAAGGAGGUUUUCUCCCUGCCCGGGAAGAGGACAGAUGGAAUUCUCGGGUGCCAA	0.34
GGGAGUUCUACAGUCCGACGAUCUUCAGGACGCCUCGUGUUUUUGUUUUCUGCUGGAUCUGUGUGGUGGUGUUAGCGUCGUUUGCCUAGCAUCUGAUUUUCUGAUGUAACCAGGGUUUCACGCUGUUCUUUUCUGGAAUUCUCGGGUGCCAA	0.576
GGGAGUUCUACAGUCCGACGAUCAAAAGUAUAGUUUUAUAUUUGAAAUGUAUGCAAAUUAUGGCCAUAUGGCUGAUUGGAAUGUACUACUGUAAUAUAAAAAGUCACUGUAUUUGCAAUAAAUUCUUUUCUAUUGGAAUUCUCGGGUGCCAA	1.31
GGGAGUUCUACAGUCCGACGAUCCACCCAACUCCCUCUGCCUCUCCCCAAACCGGGCCGCCAGGAUCCCUCCCCGCGGCAGCGAUGGCCCGAGCCAUGAGAGUGAGGACUUUCCGCGCCCAUUGGUGACCCUUUGGAAUUCUCGGGUGCCAA	0.37
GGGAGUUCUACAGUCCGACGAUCACACAUACACACACAGCCUUUCACUGGAAGCCAUGGGCUUCCAGGUUAAGUUCAGCCAAGGGACCCAAUGCAGACAUCCUUCGUGGACAGGGUUCAGCCUUGGGAGGCCAUGGAAUUCUCGGGUGCCAA	0.853
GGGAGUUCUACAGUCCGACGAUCCACACCACACACUUGUUUAGUGAACCAAAUCUAGAAAGUACCAAGGCAGAGGUAUGCUCCUGCUGUAAUCAGGCAAAUGAGUUCAACUGGAUUUCUUUUGACAAUACUGUUGGAAUUCUCGGGUGCCAA	0.339
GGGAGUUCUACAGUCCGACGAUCACCACUCUCUGCGUAUUGAUGGCAUGAUACGGUAUUGUCCUCGUAUAGAGUUAACAACUUACGAUAAAUUGCCCAAAGCUGGGCCUUGCUGUGUGUGCUCUGGACACUGUUGGAAUUCUCGGGUGCCAA	0.396

For quick reference, copied from above (study 4):
Sequence	RBNS enrichment (R)
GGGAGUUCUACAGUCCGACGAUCUUUCUAUGUCUCCCCAAGGCUGGGGUGCUGAGCCUGCCUUCCUCACCACCUAGCCAUAGUCUCAAACCUGUGGGGAAGGAGGUUUUCUCCCUGCCCGGGAAGAGGACAGAUGGAAUUCUCGGGUGCCAA	0.34
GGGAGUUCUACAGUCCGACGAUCUUCAGGACGCCUCGUGUUUUUGUUUUCUGCUGGAUCUGUGUGGUGGUGUUAGCGUCGUUUGCCUAGCAUCUGAUUUUCUGAUGUAACCAGGGUUUCACGCUGUUCUUUUCUGGAAUUCUCGGGUGCCAA	0.576
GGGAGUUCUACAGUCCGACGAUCAAAAGUAUAGUUUUAUAUUUGAAAUGUAUGCAAAUUAUGGCCAUAUGGCUGAUUGGAAUGUACUACUGUAAUAUAAAAAGUCACUGUAUUUGCAAUAAAUUCUUUUCUAUUGGAAUUCUCGGGUGCCAA	1.31
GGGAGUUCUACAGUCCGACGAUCCACCCAACUCCCUCUGCCUCUCCCCAAACCGGGCCGCCAGGAUCCCUCCCCGCGGCAGCGAUGGCCCGAGCCAUGAGAGUGAGGACUUUCCGCGCCCAUUGGUGACCCUUUGGAAUUCUCGGGUGCCAA	0.37
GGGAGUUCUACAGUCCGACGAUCACACAUACACACACAGCCUUUCACUGGAAGCCAUGGGCUUCCAGGUUAAGUUCAGCCAAGGGACCCAAUGCAGACAUCCUUCGUGGACAGGGUUCAGCCUUGGGAGGCCAUGGAAUUCUCGGGUGCCAA	0.853
